Measured values gathered from unrelated publications.
Lines come from different studies, so protocols differ. Numbers after ± are the reported error.
UniProt P34981, sequence (whole entry, looked up): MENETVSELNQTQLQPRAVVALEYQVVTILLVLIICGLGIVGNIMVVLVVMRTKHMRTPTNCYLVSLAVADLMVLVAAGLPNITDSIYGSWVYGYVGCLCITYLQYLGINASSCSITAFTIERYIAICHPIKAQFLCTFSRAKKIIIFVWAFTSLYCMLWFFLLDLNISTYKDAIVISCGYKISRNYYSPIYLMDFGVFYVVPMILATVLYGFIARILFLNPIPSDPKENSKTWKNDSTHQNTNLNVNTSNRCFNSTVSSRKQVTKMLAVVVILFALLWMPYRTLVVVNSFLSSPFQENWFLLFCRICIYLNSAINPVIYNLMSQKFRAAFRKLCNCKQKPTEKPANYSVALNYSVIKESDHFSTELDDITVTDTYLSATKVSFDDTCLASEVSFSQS

O=[N+]([O-])c1ccc(N2CCN(CCC(O)c3ccc(F)cc3)CC2)c(C(F)(F)F)c1 (stereo not shown)
survival (Salmonella typhimurium; SOS/umu test; TA1535/pSK1002; 0.016 mg/mL, 4 h, without S9, lower range): 102%

CNC(=O)c1c(N(C)N=O)ncn1C
revertant colonies per plate (Salmonella typhimurium; plate incorporation; TA1537, water; 1500 µg/plate, without S9): 14 ± 7

COc1cc(Nc2ncc(F)c(Nc3ccc4c(n3)NC(=O)C(C)(C)O4)n2)cc(OC)c1OC
IC50 (TRHR (Homo sapiens, UniProt P34981)): > 10 µM

COc1cccc(-c2n[nH]c(SCc3ccccn3)n2)c1OC
revertant colonies per plate (Salmonella typhimurium; Ames test, plate incorporation; TA1537; 0.13 mg/plate, with rat liver S9): 15

O=[N+]([O-])c1ccc(N2CCC(NCCC(O)c3ccc(F)c4ccccc34)CC2)c(C(F)(F)F)c1 (stereo not shown)
induction factor (Salmonella typhimurium; SOS/umu test; TA1535/pSK1002; 6.1e-05 mg/mL, 4 h, with 10% rat liver S9; reference: untreated): 1.3

CC[C@H](C)[C@@H]1NC(=O)[C@@H]2CCCN2C(=O)[C@H](CC(C)C)NC(=O)[C@H](CC(C)C)NC(=O)CNC(=O)[C@@H](NC(=O)[C@@H](NC(=O)[C@H](CC(=O)O)NC(=O)CNC(=O)[C@@H](NC(=O)[C@H](C)NC(=O)CNC(=O)[C@H](CCCCN)NC(=O)[C@H](CC(C)C)NC(=O)[C@H](CC(C)C)NC(=O)[C@H](CCCCN)NC(=O)CNC(=O)[C@@H](NC(=O)[C@@H](N)CC(C)C)C(C)C)C(C)C)C(C)C)CSSC[C@@H](C(=O)O)NC1=O
log2 fold change (RNA-seq, refers to: Csrnp1; mouse, traumatic brain injury model, frontal cortex and hippocampus; dose not given; reference: TBI alone): -1.98

CO[C@H]1C[C@@H]2CC[C@@H](C)[C@@](O)(O2)C(=O)C(=O)N2CCCC[C@H]2C(=O)O[C@H]([C@H](C)C[C@@H]2CC[C@@H](OC(=O)NCCOCCOCCOCCOCCOCCOCCOCCOCCC(=O)N3CCc4cc(Cn5nc(-c6ccc7oc(N)nc7c6)c6c(N)ncnc65)ccc4C3)[C@H](OC)C2)C[C@@H](O)[C@H](C)/C=C(\C)[C@@H](O)[C@@H](OC)C(=O)[C@H](C)C[C@H](C)/C=C/C=C/C=C/1C
deaths due to TRAEs (phase 1 dose escalation; advanced solid tumour patients; intravenous, 12 mg weekly, grade ≥3): 0%

Fc1ccc(C2=CCNCC2)cc1
survival (Salmonella typhimurium; SOS/umu test; TA1535/pSK1002, TGA medium; 0.25 mg/mL, 4 h, with: 10% rat liver S9): 97.5%

[Cl-].[Cl-].[Pt+2].[Ru+2].c1ccc(-c2nc3cc4ccccc4cc3nc2-c2ccccn2)nc1.c1cnc2c(c1)ccc1cccnc12.c1cnc2c(c1)ccc1cccnc12
hatching rate (Danio rerio; embryos; 75 µM, 72 h): 10 ± 5.2%

COc1cc2c(Oc3ccc4[nH]c(C)cc4c3F)ccnc2cc1OCC1(N)CC1
grade 3 Hematochezia (paediatric recurrent refractory sarcoma; concentration not given, whole group): 0%

[Cl-].[Cl-].[Pt+2].[Ru+2].c1ccc(-c2nc3ccccc3nc2-c2ccccn2)nc1.c1cnc2c(c1)ccc1cccnc12.c1cnc2c(c1)ccc1cccnc12
survival rate (Danio rerio; embryos; 15 µM, 72 h): 86.7 ± 2.4%

CC(=O)N1CCC(C(=O)N2CCN3C(=O)c4cc(-c5ccccc5)ccc4NC(=O)C3C2)CC1 (stereo not shown)
fold increase in revertants (Salmonella typhimurium; TA1537; 50 µg/plate, with: rat liver S9; reference: vehicle): 1.3

Cc1cc(C(=O)NC(C)(C)COc2cccc3c2C(N)=NS(=O)(=O)N3)cc(C)n1
revertant ratio (Salmonella typhimurium; Ames test, initial; TA100; 1.50 µg/plate; reference: solvent control): 1
